Experimental data pooled from the literature.
Numbered parts are unrelated; each lists some results of a single study. Several values in a cell are separate wells, animals, samples, runs or records.
Sequence of UniProt P42336 (whole entry, unmodified, looked up): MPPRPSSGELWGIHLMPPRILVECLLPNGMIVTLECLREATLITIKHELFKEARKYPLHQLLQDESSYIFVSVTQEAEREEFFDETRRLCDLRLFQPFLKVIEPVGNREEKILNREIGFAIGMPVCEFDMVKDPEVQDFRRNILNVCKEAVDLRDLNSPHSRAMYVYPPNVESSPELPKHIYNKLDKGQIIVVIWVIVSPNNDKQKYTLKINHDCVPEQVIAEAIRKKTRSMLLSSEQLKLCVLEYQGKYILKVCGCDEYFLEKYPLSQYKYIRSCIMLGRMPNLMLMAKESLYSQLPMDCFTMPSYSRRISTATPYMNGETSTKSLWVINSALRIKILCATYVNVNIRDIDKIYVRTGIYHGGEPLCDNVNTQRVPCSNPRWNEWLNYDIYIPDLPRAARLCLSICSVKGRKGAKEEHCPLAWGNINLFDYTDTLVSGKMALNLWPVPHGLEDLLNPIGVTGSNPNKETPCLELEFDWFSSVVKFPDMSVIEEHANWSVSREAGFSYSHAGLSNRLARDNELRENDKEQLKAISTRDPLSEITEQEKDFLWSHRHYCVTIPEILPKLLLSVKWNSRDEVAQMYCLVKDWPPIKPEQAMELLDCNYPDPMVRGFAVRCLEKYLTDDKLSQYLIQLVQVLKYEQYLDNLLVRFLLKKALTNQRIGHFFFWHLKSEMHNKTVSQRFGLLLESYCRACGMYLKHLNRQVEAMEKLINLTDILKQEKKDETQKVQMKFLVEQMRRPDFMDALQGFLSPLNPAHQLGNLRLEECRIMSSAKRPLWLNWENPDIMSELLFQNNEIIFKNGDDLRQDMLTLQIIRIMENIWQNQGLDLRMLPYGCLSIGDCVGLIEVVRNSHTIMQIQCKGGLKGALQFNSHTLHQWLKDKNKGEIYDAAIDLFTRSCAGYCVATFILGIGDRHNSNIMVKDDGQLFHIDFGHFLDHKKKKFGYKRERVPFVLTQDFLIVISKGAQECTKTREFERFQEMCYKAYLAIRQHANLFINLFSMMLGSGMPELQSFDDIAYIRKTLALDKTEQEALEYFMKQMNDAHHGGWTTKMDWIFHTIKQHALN
Sequence of UniProt Q9BYP7 (whole entry, looked up): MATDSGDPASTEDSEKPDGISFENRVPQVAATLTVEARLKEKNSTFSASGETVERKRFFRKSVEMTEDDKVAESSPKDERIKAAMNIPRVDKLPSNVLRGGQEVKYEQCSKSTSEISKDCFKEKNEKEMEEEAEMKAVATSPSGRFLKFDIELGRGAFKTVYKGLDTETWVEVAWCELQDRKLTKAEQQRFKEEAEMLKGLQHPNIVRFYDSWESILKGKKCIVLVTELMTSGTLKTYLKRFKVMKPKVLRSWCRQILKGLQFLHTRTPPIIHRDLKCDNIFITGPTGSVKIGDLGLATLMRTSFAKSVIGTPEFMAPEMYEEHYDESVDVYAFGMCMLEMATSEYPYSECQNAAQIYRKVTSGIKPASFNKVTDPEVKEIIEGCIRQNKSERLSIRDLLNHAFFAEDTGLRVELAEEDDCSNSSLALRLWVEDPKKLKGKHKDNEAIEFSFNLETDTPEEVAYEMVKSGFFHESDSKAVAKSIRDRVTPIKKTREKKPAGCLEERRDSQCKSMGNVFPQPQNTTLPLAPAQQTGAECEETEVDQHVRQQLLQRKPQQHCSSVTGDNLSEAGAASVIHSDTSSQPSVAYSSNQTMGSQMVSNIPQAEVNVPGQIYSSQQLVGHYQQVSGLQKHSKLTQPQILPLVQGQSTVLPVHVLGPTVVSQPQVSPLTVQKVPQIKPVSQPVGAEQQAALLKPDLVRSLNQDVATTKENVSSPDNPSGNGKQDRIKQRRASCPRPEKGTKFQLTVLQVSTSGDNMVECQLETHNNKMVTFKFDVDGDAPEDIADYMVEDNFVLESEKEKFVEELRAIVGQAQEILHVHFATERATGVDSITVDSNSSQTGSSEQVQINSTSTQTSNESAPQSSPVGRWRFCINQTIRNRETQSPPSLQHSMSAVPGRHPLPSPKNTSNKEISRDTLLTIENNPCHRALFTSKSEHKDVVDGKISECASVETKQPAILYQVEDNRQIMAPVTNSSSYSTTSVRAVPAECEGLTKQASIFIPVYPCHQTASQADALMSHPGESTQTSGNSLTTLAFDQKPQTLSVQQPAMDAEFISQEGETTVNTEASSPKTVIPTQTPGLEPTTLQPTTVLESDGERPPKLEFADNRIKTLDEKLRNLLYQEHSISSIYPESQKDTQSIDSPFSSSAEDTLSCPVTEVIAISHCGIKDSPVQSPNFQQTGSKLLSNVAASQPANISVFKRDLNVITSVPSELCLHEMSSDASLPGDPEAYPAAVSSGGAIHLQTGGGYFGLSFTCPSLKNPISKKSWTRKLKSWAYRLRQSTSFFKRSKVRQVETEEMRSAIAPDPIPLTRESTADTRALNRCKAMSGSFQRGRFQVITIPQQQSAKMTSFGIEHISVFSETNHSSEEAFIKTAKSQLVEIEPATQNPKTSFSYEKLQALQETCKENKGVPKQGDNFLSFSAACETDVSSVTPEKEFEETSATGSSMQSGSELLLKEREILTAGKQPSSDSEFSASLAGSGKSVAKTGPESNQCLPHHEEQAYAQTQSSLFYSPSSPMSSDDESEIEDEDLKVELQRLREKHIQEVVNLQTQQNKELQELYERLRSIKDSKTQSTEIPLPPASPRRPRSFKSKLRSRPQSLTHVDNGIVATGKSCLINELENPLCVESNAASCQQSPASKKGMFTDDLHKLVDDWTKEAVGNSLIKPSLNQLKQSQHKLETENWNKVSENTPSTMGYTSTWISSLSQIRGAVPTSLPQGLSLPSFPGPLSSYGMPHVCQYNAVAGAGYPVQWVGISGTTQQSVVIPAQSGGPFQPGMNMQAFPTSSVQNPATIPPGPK
Sequence of UniProt O00238 (whole entry, looked up): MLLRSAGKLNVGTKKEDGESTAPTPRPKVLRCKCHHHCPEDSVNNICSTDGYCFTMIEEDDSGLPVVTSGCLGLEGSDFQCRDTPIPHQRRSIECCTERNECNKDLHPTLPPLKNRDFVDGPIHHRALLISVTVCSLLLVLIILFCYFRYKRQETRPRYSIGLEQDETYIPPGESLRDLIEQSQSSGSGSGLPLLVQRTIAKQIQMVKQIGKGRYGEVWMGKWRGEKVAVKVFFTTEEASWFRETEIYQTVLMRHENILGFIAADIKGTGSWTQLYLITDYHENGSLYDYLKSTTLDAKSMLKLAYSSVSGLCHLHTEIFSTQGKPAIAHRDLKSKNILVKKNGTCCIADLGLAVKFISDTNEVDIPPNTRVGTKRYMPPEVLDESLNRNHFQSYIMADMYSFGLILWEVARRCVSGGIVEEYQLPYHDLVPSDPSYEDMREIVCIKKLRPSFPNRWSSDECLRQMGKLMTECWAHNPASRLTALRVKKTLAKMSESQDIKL
Sequence of UniProt Q00537 (whole entry, looked up): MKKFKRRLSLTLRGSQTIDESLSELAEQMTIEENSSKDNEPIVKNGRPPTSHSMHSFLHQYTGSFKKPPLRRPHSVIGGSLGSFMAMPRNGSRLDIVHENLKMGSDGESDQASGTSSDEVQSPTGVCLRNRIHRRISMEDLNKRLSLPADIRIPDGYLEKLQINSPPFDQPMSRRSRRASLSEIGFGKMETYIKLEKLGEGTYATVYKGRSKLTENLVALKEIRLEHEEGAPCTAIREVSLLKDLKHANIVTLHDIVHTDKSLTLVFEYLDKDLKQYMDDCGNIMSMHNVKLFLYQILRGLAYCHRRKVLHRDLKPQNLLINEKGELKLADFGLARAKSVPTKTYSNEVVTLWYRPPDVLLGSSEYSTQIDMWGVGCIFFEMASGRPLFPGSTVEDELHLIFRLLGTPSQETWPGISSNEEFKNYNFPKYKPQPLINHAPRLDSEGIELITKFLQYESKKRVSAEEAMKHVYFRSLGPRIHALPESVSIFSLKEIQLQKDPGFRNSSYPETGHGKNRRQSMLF
Sequence of UniProt P49841 (whole entry, looked up): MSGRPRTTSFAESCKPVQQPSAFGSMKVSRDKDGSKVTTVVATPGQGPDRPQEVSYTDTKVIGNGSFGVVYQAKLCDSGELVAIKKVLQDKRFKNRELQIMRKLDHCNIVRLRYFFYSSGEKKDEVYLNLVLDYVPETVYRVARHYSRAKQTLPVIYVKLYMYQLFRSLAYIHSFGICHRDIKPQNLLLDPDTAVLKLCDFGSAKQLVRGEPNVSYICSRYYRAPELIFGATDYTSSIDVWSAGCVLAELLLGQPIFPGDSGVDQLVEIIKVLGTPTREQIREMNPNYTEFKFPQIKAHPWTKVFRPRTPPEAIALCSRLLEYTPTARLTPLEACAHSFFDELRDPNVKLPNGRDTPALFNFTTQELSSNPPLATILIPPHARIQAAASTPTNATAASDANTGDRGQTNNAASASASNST

Set 1
Target: Calcium/calmodulin-dependent protein kinase type II subunit alpha (CAMK2A, Homo sapiens, UniProt Q9UQM7)
Sequence of UniProt Q9UQM7 (whole entry, looked up): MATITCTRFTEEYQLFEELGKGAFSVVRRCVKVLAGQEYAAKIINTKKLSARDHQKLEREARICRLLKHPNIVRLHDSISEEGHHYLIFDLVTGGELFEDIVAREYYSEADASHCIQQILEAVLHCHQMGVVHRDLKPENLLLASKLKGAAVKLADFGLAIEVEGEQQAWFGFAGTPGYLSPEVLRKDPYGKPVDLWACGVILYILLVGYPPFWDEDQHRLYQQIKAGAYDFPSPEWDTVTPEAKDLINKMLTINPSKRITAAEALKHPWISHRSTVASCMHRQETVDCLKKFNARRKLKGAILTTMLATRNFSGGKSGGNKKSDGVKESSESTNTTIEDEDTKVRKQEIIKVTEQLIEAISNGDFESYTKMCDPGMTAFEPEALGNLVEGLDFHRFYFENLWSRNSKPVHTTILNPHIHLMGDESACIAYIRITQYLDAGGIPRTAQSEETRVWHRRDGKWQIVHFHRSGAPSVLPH
Effect on: enzyme activity
Mode: inhibitor
Concentration: 10 µM
The inhibition of `CC=Cc1ccc(OC(C)=O)c(OC)c1` is reported as -3%.
For `C[C@]12CC[C@@H](O)C[C@H]1CC[C@@H]1[C@@H]2C(=O)C[C@@]2(C)[C@H]1CC[C@]2(O)C(=O)CO`, the inhibition was 9%.
For `COc1ccc(-c2noc(CC(=O)O)c2-c2ccc(OC)cc2)cc1`, the inhibition was -2%.
`CCN(CC)CCNC(=O)c1ccc(NC(C)=O)cc1` gave an inhibition of 3%.
The inhibition of `CC12CCC(C1)C(C)(C)C2O` (stereo not drawn) is reported as -33%.

Set 2
SMILES: CC(=O)C1=C(C)N(c2cccc(C(F)(F)F)c2)C(=O)N[C@@H]1c1ccc(C#N)nc1
Effect on: cell-free assay
Technique: competition with immobilised ligand
Concentration: 1 µM
The remaining binding was 78% (Serine/threonine-protein kinase D3 (PRKD3, Homo sapiens, UniProt O94806)).
For Ribosomal protein S6 kinase alpha-2, N-terminal kinase domain (RPS6KA2, Homo sapiens, UniProt Q15349): remaining binding read 72.8%.
The remaining binding was 100% (RAC-beta serine/threonine-protein kinase (AKT2, Homo sapiens, UniProt P31751)).
The remaining binding was 100% (Phosphatidylinositol 4,5-bisphosphate 3-kinase catalytic subunit alpha isoform (PIK3CA, Homo sapiens, UniProt P42336, E542K)).
For Serine/threonine-protein kinase 36 (STK36, Homo sapiens, UniProt Q9NRP7): remaining binding read 100%.
Myosin light chain kinase family member 4 (MYLK4, Homo sapiens, UniProt Q86YV6) — remaining binding: 100%.
The remaining binding was 100% (Glycogen synthase kinase-3 beta (GSK3B, Homo sapiens, UniProt P49841)).
It gave 100% for remaining binding (MAP/microtubule affinity-regulating kinase 4 (MARK4, Homo sapiens, UniProt Q96L34)).
The remaining binding was 82.9% (Receptor-type tyrosine-protein kinase FLT3, autoinhibited (FLT3, Homo sapiens, UniProt P36888)).
The remaining binding was 78.6% (Epidermal growth factor receptor (EGFR, Homo sapiens, UniProt P00533, del746-750)).
For Mitogen-activated protein kinase 11 (MAPK11, Homo sapiens, UniProt Q15759): remaining binding read 100%.
For Serine/threonine-protein kinase Nek3 (NEK3, Homo sapiens, UniProt P51956): remaining binding read 72%.
For Proto-oncogene tyrosine-protein kinase Src (SRC, Homo sapiens, UniProt P12931): remaining binding read 95.9%.
For Dual specificity mitogen-activated protein kinase kinase 1 (MAP2K1, Homo sapiens, UniProt Q02750): remaining binding read 93.3%.
For Aurora kinase C (AURKC, Homo sapiens, UniProt Q9UQB9): remaining binding read 100%.
It gave 100% for remaining binding (Phosphatidylinositol 4,5-bisphosphate 3-kinase catalytic subunit alpha isoform (PIK3CA, Homo sapiens, UniProt P42336, Q546K)).
It gave 100% for remaining binding (Mitogen-activated protein kinase kinase kinase 3 (MAP3K3, Homo sapiens, UniProt Q99759)).
It gave 100% for remaining binding (Casein kinase I isoform alpha-like (CSNK1A1L, Homo sapiens, UniProt Q8N752)).
The remaining binding was 100% (Cyclin-dependent kinase 17 (CDK17, Homo sapiens, UniProt Q00537)).
LIM domain kinase 2 (LIMK2, Homo sapiens, UniProt P53671) — remaining binding: 91.7%.
For Serine/threonine-protein kinase haspin (HASPIN, Homo sapiens, UniProt Q8TF76): remaining binding read 100%.
For Serine/threonine-protein kinase WNK3 (WNK3, Homo sapiens, UniProt Q9BYP7): remaining binding read 100%.
It gave 100% for remaining binding (Wee1-like protein kinase (WEE1, Homo sapiens, UniProt P30291)).
For Bone morphogenetic protein receptor type-1B (BMPR1B, Homo sapiens, UniProt O00238): remaining binding read 74.2%.
Epidermal growth factor receptor (EGFR, Homo sapiens, UniProt P00533, T790M) — remaining binding: 67.2%.

Set 3
Cell line: mouse MPNST tumor cells
Technique: high-content nuclear imaging
Item: cell number
Concentration: 10 µM
Time: 12 h
Setting: mean of 2 replicates
Baseline: plate mean
Reading: higher = more cells
The nuclei count of `O=C(O)c1cn(-c2ccc(F)cc2)c2cc(N3CCNCC3)c(F)cc2c1=O` is reported as 1.07 z-score.
The nuclei count of `Nc1ccn([C@H]2CC[C@@H](CO)O2)c(=O)n1` is reported as 0.958 z-score and 0.302 z-score.
`Nc1ccc(/N=N/c2ccccc2)c(N)n1` gave a nuclei count of 2.23 z-score.
`Cc1cc(C)nc(NS(=O)(=O)c2ccc(NC(=S)NC(=O)COc3ccc(Br)cc3Cl)cc2)n1` gave a nuclei count of 0.237 z-score.
The nuclei count of `Cn1cc(-c2ccc3c(c2)CCN3C(=O)Cc2cccc(C(F)(F)F)c2)c2c(N)ncnc21` is reported as -0.185 z-score.
`Cc1nc(NC(=O)N2CCCC2C(N)=O)sc1-c1csc(C(C)(C)C)n1` (stereo not drawn) has a nuclei count of 2.92 z-score.

Set 4
Cell line: A-375
Concentration: 100 µM
Time: 36 h
The viability of `C#C[C@]1(O)CC[C@H]2[C@@H]3CCc4cc(OC)ccc4[C@H]3CC[C@@]21C` is reported as 9.29%.
`COCCOC(=O)C1=C(C)NC(C)=C(C(=O)OC/C=C/c2ccccc2)C1c1cccc([N+](=O)[O-])c1` (stereo not drawn) has a viability of 22.1%.
For `C=CC(=O)Nc1cccc(Nc2nc(Nc3ccc(N4CCN(C(C)=O)CC4)cc3OC)ncc2C(F)(F)F)c1`, the viability was 11.8%.
`CC(C)c1cc2c(cc1S(=O)(=O)O)[C@@]1(C)CCC[C@@](C)(C(=O)O)[C@@H]1CC2` has a viability of 108%.
For `O=C(/C=C/c1ccc(O)c2c1[C@H](C(=O)O[C@H](Cc1ccc(O)c(O)c1)C(=O)O)[C@@H](c1ccc(O)c(O)c1)O2)O[C@H](Cc1ccc(O)c(O)c1)C(=O)O`, the viability was 116%.

Set 5
Effect on: AlphaScreen signal
Technique: AlphaScreen counter screen
Matrix: His6 peptide without bromodomain
Concentration: 50 µM
Setting: assay interference check
With `Nc1nc(OCc2ccccc2)c2nc[nH]c2n1` the inhibition was 9.75%.
`O=C(NNC(=O)c1c(O)c2ccccc2[nH]c1=O)c1ccccc1[N+](=O)[O-]` has an inhibition of 12.2%.
For `Cc1ccc(C=C(C#N)c2nc3ccccc3s2)o1`, the inhibition was 31.6%.
With `O=C1NC(=O)C(=Cc2ccc3nccnc3c2)S1` the inhibition was -0.3%.
For `O=C1NC(=NCc2cccs2)S/C1=C\c1ccc2ncccc2c1`, the inhibition was 19.2%.
For `COc1cc2nccc(Oc3ccc(NC(=O)C4(C(=O)Nc5ccc(F)cc5)CC4)cc3)c2cc1OC`, the inhibition was 30.6%.

Set 6
Cell line: Huh-7
Concentration: 10 µM
Time: 24 h
`NS(=O)(=O)c1cc2c(cc1Cl)N=C(CSCc1ccccc1)NS2(=O)=O` has a viability of 97%.
With `CN(C)CCc1c[nH]c2ccc(CS(=O)(=O)N3CCCC3)cc12` the viability was 103%.
`C[C@]12CC[C@@H]3c4ccc(O)cc4CC[C@H]3[C@@H]1CC[C@@H]2OC(=O)CCC1CCCC1` gave a viability of 88.5%.
`COc1ccc(-c2cc(C(F)F)nn2-c2ccc(S(N)(=O)=O)cc2)cc1F` gave a viability of 96.3%.

Excerpt of the above (set 5):
With `Nc1nc(OCc2ccccc2)c2nc[nH]c2n1` the inhibition was 9.75%.
`O=C(NNC(=O)c1c(O)c2ccccc2[nH]c1=O)c1ccccc1[N+](=O)[O-]` has an inhibition of 12.2%.
For `Cc1ccc(C=C(C#N)c2nc3ccccc3s2)o1`, the inhibition was 31.6%.
With `O=C1NC(=O)C(=Cc2ccc3nccnc3c2)S1` the inhibition was -0.3%.
For `O=C1NC(=NCc2cccs2)S/C1=C\c1ccc2ncccc2c1`, the inhibition was 19.2%.
For `COc1cc2nccc(Oc3ccc(NC(=O)C4(C(=O)Nc5ccc(F)cc5)CC4)cc3)c2cc1OC`, the inhibition was 30.6%.
